Values quoted from earlier work as cited in several papers.
Protocols differ between the studies behind these lines. Numbers after ± are the reported error.
Chain of UniProt Q8IYT8 (whole entry, looked up): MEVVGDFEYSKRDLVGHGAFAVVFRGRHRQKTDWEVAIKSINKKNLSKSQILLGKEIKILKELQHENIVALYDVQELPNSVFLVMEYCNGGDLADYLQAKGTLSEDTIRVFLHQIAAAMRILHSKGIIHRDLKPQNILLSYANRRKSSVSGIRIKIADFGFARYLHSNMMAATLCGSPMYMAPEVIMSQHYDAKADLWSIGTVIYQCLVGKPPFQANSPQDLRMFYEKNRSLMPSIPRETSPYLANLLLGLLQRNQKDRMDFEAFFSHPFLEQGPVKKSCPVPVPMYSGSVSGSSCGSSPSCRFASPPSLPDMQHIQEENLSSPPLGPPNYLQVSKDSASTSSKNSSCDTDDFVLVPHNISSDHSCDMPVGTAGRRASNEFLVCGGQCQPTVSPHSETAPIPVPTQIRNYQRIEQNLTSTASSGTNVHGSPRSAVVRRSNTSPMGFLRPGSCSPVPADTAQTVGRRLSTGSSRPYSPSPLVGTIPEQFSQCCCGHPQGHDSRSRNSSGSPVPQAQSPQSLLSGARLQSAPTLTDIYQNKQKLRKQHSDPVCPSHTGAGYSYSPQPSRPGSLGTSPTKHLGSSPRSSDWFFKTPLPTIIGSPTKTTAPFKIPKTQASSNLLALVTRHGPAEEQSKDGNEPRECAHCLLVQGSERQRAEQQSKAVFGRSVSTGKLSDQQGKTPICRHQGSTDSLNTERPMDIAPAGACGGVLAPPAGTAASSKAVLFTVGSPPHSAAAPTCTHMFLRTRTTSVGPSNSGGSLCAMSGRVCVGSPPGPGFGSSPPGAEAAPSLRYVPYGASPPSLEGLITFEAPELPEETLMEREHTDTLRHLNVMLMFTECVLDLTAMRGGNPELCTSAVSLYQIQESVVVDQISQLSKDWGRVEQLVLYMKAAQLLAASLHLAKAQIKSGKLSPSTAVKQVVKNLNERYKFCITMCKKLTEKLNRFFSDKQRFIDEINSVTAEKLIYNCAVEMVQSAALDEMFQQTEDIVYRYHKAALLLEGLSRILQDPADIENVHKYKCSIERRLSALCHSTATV

For CNC(=O)c1c(C)oc2cc(Oc3ncnc4cc(OC)c(OC)cc34)ccc12, the Tmax was about 2 h (human; oral, dose not given).
The Tmax of CNCc1cc(-c2ccccc2F)n(S(=O)(=O)c2cccnc2)c1 is reported as 1.5 h (human, plasma; 40 mg multiple dose, observed clinical data).
With Cc1[nH]c2ccccc2c1CCNCc1ccc(/C=C/C(=O)NO)cc1 the Tmax was 1 to 1.5 h (human; oral, dose not given).
With C[C@H](Cn1cnc2c(N)ncnc21)OCP(=O)(O)O the Tmax was 0.5 h (human, plasma; oral, 300 mg tenofovir disoproxil fumarate, single dose).
With Cc1cccc(F)c1N1CCC(N2Cc3cn(CC(C)(F)F)nc3N(Cc3ccccc3C(F)(F)F)C2=O)CC1 the Tmax was 3 h (human, fed).
CNC(=O)c1cc(Oc2ccc(NC(=O)Nc3ccc(Cl)c(C(F)(F)F)c3)cc2)ccn1 gave a Tmax of about 3 h (human; product characteristics summary).
For Cc1cc2nc3c(=O)[nH]c(=O)nc-3n(C[C@H](O)[C@H](O)[C@H](O)CO)c2cc1C, the Tmax was 2 h (human; oral, up to 60 mg).
The Tmax of CC(C)(O)CNc1nc(Nc2ccnc(C(F)(F)F)c2)nc(-c2cccc(C(F)(F)F)n2)n1 is reported as 4 h (human; 100 mg).
CCN(CC)Cc1ccc2cc(COC(=O)Nc3ccc(C(=O)NO)cc3)ccc2c1 gave a Tmax of 2.1 h (healthy male humans; oral, 100 mg).
The Tmax of Cc1ccccc1CN1C(=O)C2=C(CCN(Cc3ccccc3)C2)N2CCN=C12 is reported as 1 h (human; oral, 625 mg, fasted, single dose, without rabeprazole).
CC(C)Nc1nc2cc(Cl)c(Cl)cc2n1[C@H]1O[C@@H](CO)[C@H](O)[C@@H]1O has a Tmax of 1 to 3 h (human; oral, dose not given).
CCN1CCN(Cc2ccc(Nc3ncc(F)c(-c4cc(F)c5nc(C)n(C(C)C)c5c4)n3)nc2)CC1 gave a Tmax of 3.95 h (human; 200 mg twice daily, multiple dose, tablet).
Nc1cc(C(F)(F)F)c(-c2nc(N3CCOCC3)nc(N3CCOCC3)n2)cn1 has a remaining activity of 91% (Serine/threonine-protein kinase ULK2 (ULK2, Homo sapiens, UniProt Q8IYT8); enzyme activity; 10 µM; reference: untreated).
For Cc1cc(C)c(CNC(=O)c2cc(Cl)c3c(c2C)O[C@@](C)([C@H]2CC[C@H](N(C)C)CC2)O3)c(=O)[nH]1, the Tmax was 4.5 h (human; oral, 200 mg single dose, median).
COCCc1ccc(OCC(O)CNC(C)C)cc1 (stereo not drawn) has a Tmax of 13.5 h (human fasted; 400 mg single dose, mean).
The Tmax of CCCn1cc(C)c2c(=O)[nH]c(-c3cc(S(=O)(=O)N4CCN(CC)CC4)ccc3OCC)nc21 is reported as 0.5 to 1 h (human; oral, median).
With COc1cc2c(Oc3ccc4[nH]c(C)cc4c3F)ccnc2cc1OCC1(N)CC1 the Tmax was 11 ± 8.9 h (human; 16 mg single dose).
C[C@H]1CO[C@@H]2Cn3cc(C(=O)NCc4ccc(F)cc4F)c(=O)c(O)c3C(=O)N12 gave a Tmax of 1 h (human; oral solution, median).
The Tmax of O=C(c1cc(Cc2n[nH]c(=O)c3ccccc23)ccc1F)N1CCN(C(=O)C2CC2)CC1 is reported as 1.5 h (human; oral tablet, 200 mg twice daily, multiple dose).
O=C1[C@H](CC[C@H](O)c2ccc(F)cc2)[C@@H](c2ccc(O)cc2)N1c1ccc(F)cc1 gave a Tmax of about 5 h (human; oral, 20 mg, given alone, nearest sampling time).
CO[C@@H](C)Cn1c(=O)n(C)c2cnc3ccc(-c4cncc(C(C)(C)O)c4)cc3c21 gave a Tmax of 1 to 2 h (human; oral).

A few entries again:
CNC(=O)c1cc(Oc2ccc(NC(=O)Nc3ccc(Cl)c(C(F)(F)F)c3)cc2)ccn1 gave a Tmax of about 3 h (human; product characteristics summary).
The Tmax of CNCc1cc(-c2ccccc2F)n(S(=O)(=O)c2cccnc2)c1 is reported as 1.5 h (human, plasma; 40 mg multiple dose, observed clinical data).
